{"data": "Measured values of several laboratories", "target": "Cytoplasmic tyrosine-protein kinase BMX (BMX, Homo sapiens, UniProt P51813)", "One construct used (P51813 1-675)": "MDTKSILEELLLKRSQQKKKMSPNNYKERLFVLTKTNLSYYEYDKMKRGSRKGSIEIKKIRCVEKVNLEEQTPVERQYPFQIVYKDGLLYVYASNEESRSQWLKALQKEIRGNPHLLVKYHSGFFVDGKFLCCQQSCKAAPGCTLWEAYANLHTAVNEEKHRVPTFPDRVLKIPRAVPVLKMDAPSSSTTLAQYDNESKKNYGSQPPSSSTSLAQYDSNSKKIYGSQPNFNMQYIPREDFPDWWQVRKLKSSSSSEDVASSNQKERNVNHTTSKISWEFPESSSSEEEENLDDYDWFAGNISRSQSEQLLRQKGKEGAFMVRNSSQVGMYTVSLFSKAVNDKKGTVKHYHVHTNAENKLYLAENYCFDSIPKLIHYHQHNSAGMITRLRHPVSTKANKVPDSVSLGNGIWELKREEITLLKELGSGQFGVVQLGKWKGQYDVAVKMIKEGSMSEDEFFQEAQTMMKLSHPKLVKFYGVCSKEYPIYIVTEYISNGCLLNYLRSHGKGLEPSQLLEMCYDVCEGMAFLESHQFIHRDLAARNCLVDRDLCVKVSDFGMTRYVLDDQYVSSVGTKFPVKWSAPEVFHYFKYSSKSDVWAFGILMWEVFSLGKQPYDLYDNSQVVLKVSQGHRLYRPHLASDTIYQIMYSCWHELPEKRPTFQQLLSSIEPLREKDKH", "note": "“And” joins repeats or separate records; there may be more than shown."}
{"Compound": "COc1ccc(NC(=O)Nc2ccc3c(c2)C(=O)N(C(C)CO)CC(C)C(CN(C)Cc2ccc4c(c2)OCO4)O3)cc1 (stereo not drawn)", "assay": "kinase activity", "setting": "0.03 µM", "how to read": "baseline: control", "measurement": "remaining activity", "value": "95%"}
{"Compound": "CCN1CCN(Cc2ccc(C(=O)Nc3ccc(C)c(NCc4cnc5[nH]ccc5c4OC)c3)cc2C(F)(F)F)CC1", "assay": "binding, competition with immobilised ligand", "setting": "1 µM", "measurement": "remaining binding", "value": "5%"}
{"Compound": "CCn1cc(C(=O)O)c(=O)c2c(N)c(F)c(NC3CCCCC3)cc21", "assay": "kinase activity", "setting": "0.1 µM, added: ATP at Km", "measurement": "inhibition", "value": "11.7%"}
{"Compound": "NC(=O)[C@@H](O)C[C@H]1CCc2sc3ncnc(O[C@H]4CC[C@H](N5CCOCC5)CC4)c3c21", "assay": "enzyme activity, inhibitor", "setting": "10 µM", "measurement": "inhibition", "value": "21%"}
{"Compound": "CNC1C[S+]2CC[S+]3CC[S+](C1)[Ru-4]321([N]=C=S)[n]2c3ccc(OC)cc3c3c4c(c5cc(F)c[n+]1c5c32)C(=O)NC4=O (stereo not drawn)", "assay": "KinomeScan", "setting": "0.1 µM", "how to read": "baseline: untreated", "measurement": "remaining binding", "value": "84%"}
{"Compound": "O=c1c(-c2ccc(Cl)c(CN3CCOCC3)c2)coc2cc(O)ccc12", "assay": "enzyme activity, inhibitor", "setting": "1 µM", "measurement": "remaining activity", "value": "91%"}
{"Compound": "C=CC(=O)N1CCCC(n2c(=O)c3ncccc3n(Cc3ccc(Oc4ccccc4)cc3)c2=O)C1 (stereo not drawn)", "assay": "cell-free assay, competition with immobilised ligand", "setting": "1 µM", "measurement": "remaining binding", "value": "100%"}
{"Compound": "Cc1cnc2nc1Nc1cccc(c1)COC/C=C/COCc1cc(ccc1OCCN1CCOCC1)N2", "assay": "binding", "setting": "0.1 µM", "measurement": "remaining binding", "value": "70%"}
{"Compound": "O=C(Cc1ccc(OCc2ccccc2)cc1)NC1(C(=O)O)CCN(C(=O)c2ccc(-c3cccc(Cl)c3)cc2)CC1", "assay": "enzyme activity, inhibitor", "setting": "10 µM", "measurement": "activity vs control", "value": "124%"}
{"Compound": "Cc1cccc(O[C@H]2CCC[C@@H](C(C)CNCc3ccncc3)C2)c1 (relative stereo)", "assay": "enzyme activity, inhibitor", "setting": "10 µM", "measurement": "inhibition", "value": "-10%"}
{"Compound": "Nc1ncc(-c2cc(-c3cnn(CC(F)(F)F)c3)ncc2F)nc1C(=O)NC1CNCC(F)C1 (stereo not drawn)", "assay": "enzyme activity", "setting": "1 µM", "how to read": "baseline: DMSO control", "measurement": "remaining activity", "value": "85.2%"}
{"Compound": "C[C@H]1CN(C(=O)c2cn(-c3ccnc(N)n3)c3cc(C#CC4(O)CCCCC4)ccc23)CCN1", "assay": "enzyme activity, inhibitor, FRET", "setting": "1 µM", "measurement": "inhibition", "value": "0%"}
{"Compound": "C=CC(=O)Nc1cccc(-c2cnc3[nH]cc(C(=O)NC(C)(C)C)c3n2)c1", "assay": "kinase activity", "setting": "0.1 µM", "measurement": "inhibition", "value": "69% and 68%"}
{"Compound": "CC(C)=CC1OC(C)(C)C2C=C3C(=O)C(Cl)=CC(O)C3C3C(O)C4OC4C(=O)C132 (stereo not drawn)", "assay": "cell-free assay, competition with immobilised ligand", "setting": "10 µM", "measurement": "remaining binding", "value": "85%"}
{"Compound": "COc1cc(Nc2nccc(-c3cnn4nc(OC)ccc34)n2)cc(C(F)(F)F)c1", "assay": "binding, competition with immobilised ligand", "setting": "1 µM", "measurement": "remaining binding", "value": "100%"}
{"note": "Excerpt of the above:"}
{"Compound": "O=C(Cc1ccc(OCc2ccccc2)cc1)NC1(C(=O)O)CCN(C(=O)c2ccc(-c3cccc(Cl)c3)cc2)CC1", "assay": "enzyme activity, inhibitor", "setting": "10 µM", "measurement": "activity vs control", "value": "124%"}
{"Compound": "Cc1cccc(O[C@H]2CCC[C@@H](C(C)CNCc3ccncc3)C2)c1 (relative stereo)", "assay": "enzyme activity, inhibitor", "setting": "10 µM", "measurement": "inhibition", "value": "-10%"}
